Experimental data pooled from the literature.
A part holds a random share of what one study measured.

Set 1 — technique: CellTiter-Glo; concentration: 1 µM; notes: mean of five organoid lines; relative to: DMSO; endpoint: viability
Cell line: normal adjacent epithelium patient-derived organoids
c1ccc2oc(-c3csc(C4CCN(Cc5nc6ncccc6[nH]5)CC4)n3)cc2c1: 46.1%
CN(C)c1ncnc(-c2ccc3nc(Nc4cc(CN5CCN(C(=O)CC(F)(F)F)CC5)ccn4)[nH]c3c2)c1Cl: 94.2%
O=C(NC[C@@H]1[C@H]2CN(C(=O)OCc3cc(C(F)(F)F)cc(C(F)(F)F)c3)C[C@@H]12)c1ccc2[nH]nnc2c1: 94.3%
O=C1NC(c2ccccn2)Sc2ccccc21 (stereo not drawn): 105%
CN(C)C(=O)Cn1cc(-c2nc(C3(c4ccc(-c5cnc(N)nc5)cc4)CC3)no2)cn1: 98.3%

Set 2 — technique: RNAcompete; form: RNA; sample: in vitro; concentration: 20 nM; notes: 7-mer, probes averaged, single round; relative to: mean of 7-mers; reading: higher = stronger binding; endpoint: 7-mer Z-score
Target: PABPC1L2, full length, GST fusion (mouse, UniProt A0ABA7IW68)
Residues (chain): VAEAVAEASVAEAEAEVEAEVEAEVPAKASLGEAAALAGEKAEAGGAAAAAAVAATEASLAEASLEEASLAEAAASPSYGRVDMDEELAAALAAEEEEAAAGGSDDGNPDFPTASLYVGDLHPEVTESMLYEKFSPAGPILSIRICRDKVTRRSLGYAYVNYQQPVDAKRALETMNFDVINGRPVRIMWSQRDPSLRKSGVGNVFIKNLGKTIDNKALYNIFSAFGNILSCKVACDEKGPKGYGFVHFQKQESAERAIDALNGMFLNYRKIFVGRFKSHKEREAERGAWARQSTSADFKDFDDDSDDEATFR
UCUGCCG: -0.293
CACGUCG: -0.244
CUCUACA: -0.231
CACAGUU: -0.3
UACGAUC: -0.18
GAACCCC: -0.295
AUAUCAG: -0.0409
GUCCCGG: -0.262

Set 3 — technique: RNA Bind-n-Seq; form: RNA; sample: in vitro; concentration: not given; relative to: input RNA pool; reading: higher = stronger binding; endpoint: bound/input enrichment
Target: RING finger protein unkempt homolog, zinc fingers 1-6, GST-SBP tag (UNK, Homo sapiens, UniProt Q9C0B0, residues 30-357)
Notes: RNA with constant flanks, human and mouse sites, ends assumed
All sequences stand within: GGGAGUUCUACAGUCCGACGAUC … CAACAGAGGAUUGAGCAUCA
Construct (chain): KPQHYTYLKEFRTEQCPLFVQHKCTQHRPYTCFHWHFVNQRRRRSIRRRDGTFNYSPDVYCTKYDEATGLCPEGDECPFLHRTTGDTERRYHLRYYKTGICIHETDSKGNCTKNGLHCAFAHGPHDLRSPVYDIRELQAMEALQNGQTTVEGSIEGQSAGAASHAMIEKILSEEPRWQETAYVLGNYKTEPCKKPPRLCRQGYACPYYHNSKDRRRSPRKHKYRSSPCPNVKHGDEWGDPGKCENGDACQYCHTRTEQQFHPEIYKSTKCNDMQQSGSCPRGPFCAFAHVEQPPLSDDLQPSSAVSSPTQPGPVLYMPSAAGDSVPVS
CCCUUUGGGAUUGUGAAAGCUUCGUGGCUACCAAAGUUUACACAAGCUGGUGCCCAGAAAAUGAAGAGACUGCCAACCCCUUCUAUGAUGAAUGAUUAUUAUGCAGCAUCUCCAAGAAUA: 0.0757 ratio
CCUAAAUUUCCCAAUUUUCUGUCCAAAAUAUUUGUGAUUUACUUGUAUAUAAGCCUUCUCAUUUGCCAUGUGCUGUGAUCUUACAAGUUAGAUGUUACUAUACCUACCAUUUAUUCAGCU: 5.5 ratio
UUGUUGCUGCUCUGAGCAUCUGGAGGAACAGAAAACUAAGUUCAUGUCAUCCUGCUGUAAUGGGCAGAGCAUAUUUUUUUUGUAUUUAAAAGAUAAACUUCAAUAUGGAAUGCUAGAAAC: 0.339 ratio
UGUAUCGCCUUUUUUAACAUCCUUAAUGAGUUAAACGACUAUGCAGGACAGCGAGAGGUAGUAGCAGAAGAAAUGGCGCACAGAGUAUAUGGUGAAUUAAUGAGAUAUGCCCAUGAUCUG: 0.513 ratio
AUCACCCAGCUGAACCUCAGCGGCUACCGAAAGAACCUCCAGAAAACAGAUCUUUGUACCAUAAUUAAACGAUGCCCCAACCUCAUCCGCCUCGACUUAAGUGACAGUAUCAUGCUAAAG: 0.253 ratio
UUAGAUUUCAUUGGUAAUAAUGAGUCCCCACGUAAGAAGUUUCCCCCGAUGACAUCUUACCACAGGAUGCUGUUACACAGAGUGGCUGCCUACUUUGGAUUAGACCACAAUGUUGAUCAG: 0.192 ratio
GCCUGGUCCAGCAUCGUCUAUCAGCUGAUCCCCAACGUUCAGCAGCUGGAGAUGAACCUAAGGAAUUUUGCCCAGAUUAUUGAGGCUGAUGAAGUUCUGCUGUUCGAGAGAGCUACGUUC: 0.148 ratio
CAGAAACUGGAAGAGAUGGUUACCCGUUUAGAUCAAGAAGUAGCCGAGGUUGAUAAAAACAUAGAACUUUUGAAAAAGAAGGAUGAAGAACUCAGUUCUGCUCUGGAAAAAAUGGAAAAU: 0.926 ratio

Set 4 — effect on: enzyme activity; action: inhibitor; concentration: 0.5 µM; relative to: control; endpoint: remaining activity
Target: Serine/threonine-protein kinase PAK 4 (PAK4, Homo sapiens, UniProt O96013)
Sequence of UniProt O96013 (whole entry, looked up): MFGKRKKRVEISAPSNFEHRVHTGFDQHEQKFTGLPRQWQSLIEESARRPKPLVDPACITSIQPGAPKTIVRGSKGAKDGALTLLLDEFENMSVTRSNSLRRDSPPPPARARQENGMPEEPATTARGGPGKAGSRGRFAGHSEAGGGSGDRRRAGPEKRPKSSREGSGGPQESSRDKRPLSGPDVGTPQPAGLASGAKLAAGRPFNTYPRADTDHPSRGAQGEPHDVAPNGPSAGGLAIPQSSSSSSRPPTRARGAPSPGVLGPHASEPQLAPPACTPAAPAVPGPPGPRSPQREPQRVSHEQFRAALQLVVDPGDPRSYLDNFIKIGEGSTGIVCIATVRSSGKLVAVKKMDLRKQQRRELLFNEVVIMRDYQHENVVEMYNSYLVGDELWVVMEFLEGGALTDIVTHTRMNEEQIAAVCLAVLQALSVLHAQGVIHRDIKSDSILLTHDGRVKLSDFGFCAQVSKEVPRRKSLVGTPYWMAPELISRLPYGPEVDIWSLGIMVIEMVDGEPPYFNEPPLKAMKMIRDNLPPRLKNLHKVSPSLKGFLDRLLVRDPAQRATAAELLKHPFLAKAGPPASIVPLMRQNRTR
COc1cc(Nc2c(C#N)cnc3cc(OCCCN4CCN(C)CC4)c(OC)cc23)c(Cl)cc1Cl: 95.8%
O=C1Cc2c([nH]c3ccc([N+](=O)[O-])cc23)-c2ccccc2N1: 93.9%
Nc1nccc(-c2c(-c3ccc(F)cc3)ncn2C2CCNCC2)n1: 95.1%
CSc1nc(-c2ccnc(N[C@@H](C)c3ccccc3)c2)c(-c2ccc(F)cc2)[nH]1 (racemic): 96.4%
Fc1ccc(-c2nc3n(c2-c2ccncc2)CCS3)cc1: 99.1%
CC(=O)c1ccc(N2CCOCC2)cc1O: 103%

For quick reference, copied from above (set 1):
c1ccc2oc(-c3csc(C4CCN(Cc5nc6ncccc6[nH]5)CC4)n3)cc2c1: 46.1%
CN(C)c1ncnc(-c2ccc3nc(Nc4cc(CN5CCN(C(=O)CC(F)(F)F)CC5)ccn4)[nH]c3c2)c1Cl: 94.2%
